Published values collected from several papers.
Protocols differ between the studies behind these lines. ± gives the spread as reported. Ends that are not written are not given here.
B1: neurofilament light chain; sequence looked up; chain SSFSYEPYYSTSYKRRYVETPRVHISSVRSGYSTARSAYSSYSAPVSSSLSVRRSYSSSSGSLMPSLENLDLSQVAAISNDLKSIRTQEKAQLQDLNDRFASFIERVHELEQQNKVLEAELLVLRQKHSEPSRFRALYEQEIRDLRLAAEDATNEKQALQGEREGLEETLRNLQARYEEEVLSREDAEGRLMEARKGADEAALARAELEKRIDSLMDEISFLKKVHEEEIAELQAQIQYAQISVEMDVTKPDLSAALKDIRAQYEKLAAKNMQNAEEWFKSRFTVLTESAAKNTDAVRAAKDEVSESRRLLKAKTLEIEACRGMNEALEKQLQELEDKQNADISAMQDTINKLENELRTTKSEMARYLKEYQDLLNVKMALDIEIAAYRKLLEGEETRLSFTSVGSITSGYSQSSQVFGRSAYGGLQTSSYLMSTRSFPSYYTSHVQEEQIEVEETIEAAKAEEAKDEPPSEGEAEEEEKDKEEAEEEEAAEEEEAAKEESEEAKEEEEGGEGEEGEETKEAEEEEKKVEGAGEEQAAKKKD

For `CC(C)[C@H](NC(=O)[C@@H]1CCCN1C(=O)[C@H](CCCNC(=N)N)NC(=O)[C@H](CS)NC(=O)[C@H](Cc1c[nH]c2ccccc12)NC(=O)[C@H](CCCNC(=N)N)NC(=O)[C@@H](Cc1ccccc1)NC(=O)[C@H](Cc1c[nH]cn1)NC(=O)[C@H](CCC(=O)O)NC(=O)[C@H](CS)NC(=O)[C@H](CS)NC(=O)[C@H](CCCCN)NC(=O)[C@@H]1CC(=O)N[C@@H](CCCNC(=N)N)C(=O)N[C@@H](C)C(=O)N[C@@H](CC(=O)O)C(=O)N[C@H](Cc2ccc(O)cc2)C(=O)N1)C(N)=O` [technetium-99m labelled], the tissue uptake was 98.6 ± 13.5 %ID/g (C57 mice, kidneys; intravenous, 0.037 MBq, 4 h).
With `rnpA F107W (Bacillus subtilis)` the pKa was 5.46 (NMR, measured: His105; 25 °C, 0.15 M NaCl, sulfate-bound folded state, numbering of the source, with: 20 mM Na2SO4).
The Cmax of `COc1cccc2c1C(=O)c1c(O)c3c(c(O)c1C2=O)C[C@@](O)(C(=O)CO)C[C@@H]3O[C@H]1C[C@H](NC(=O)[C@@H]2CCCN2C(=O)CN)[C@H](O)[C@H](C)O1` is reported as 20.9 µM (mouse, E0771 tumour-bearing, tumor; intravenous, 92 µmol/kg PhAc-ALGP-Dox).
For `insulin glulisine`, the Cmax was 0.000534 µM (obese type 2 diabetes patients, serum; subcutaneous, 0.2 U/kg, geometric mean).
For `KCNTATCATQRLANFLVHSSNNFGPILPPTNVGSNTY (Pramlintide; not fully specified (C-terminus, bridges); cysteine pairing not given here; sequence looked up)`, “adverse event incidence” read 1.8% (measured: Vomiting; peptide, obese or overweight humans; concentration not given, ITT population).
`B1 (neurofilament light chain)`: stability “stable” (human EDTA whole blood; 24 h, room temperature, delayed centrifugation).
The apparent permeability of `rhodamine B-labelled bovine serum albumin` is reported as 0.06 ×10⁻⁶ cm/s (human BBB triple coculture; concentration not given, apical to basolateral).
`insulin degludec` has a Cmax ratio of 1.05 (human, end-stage renal disease; single dose, non-dialysis profile; relative to: ESRD over normal renal function).
The half-life of `DSSEEKFLRRIGRFGYGYGPYQPVPEQPLYPQPYQPQYQQYTF (statherin; sequence looked up)` is reported as 26 min (RP-HPLC; pooled human whole saliva; 400 µg/mL, 37 °C).

Some of these lines once more:
For `KCNTATCATQRLANFLVHSSNNFGPILPPTNVGSNTY (Pramlintide; not fully specified (C-terminus, bridges); cysteine pairing not given here; sequence looked up)`, “adverse event incidence” read 1.8% (measured: Vomiting; peptide, obese or overweight humans; concentration not given, ITT population).
